# Results from different studies.
# Parts stem from different laboratories: compare values within a part only.

# Series 1
# Target: Sal-like protein 4, full length isoform B (SALL4, Homo sapiens, UniProt Q9UJQ4-2, residues 1-616)
# Technique: universal PBM
# Molecule type: double-stranded DNA, one strand shown
# Medium: in vitro
# Concentration: not given
# Notes: 8-mer, flanks averaged, mean of replicates
# Direction: higher = stronger binding
# Target sequence (chain): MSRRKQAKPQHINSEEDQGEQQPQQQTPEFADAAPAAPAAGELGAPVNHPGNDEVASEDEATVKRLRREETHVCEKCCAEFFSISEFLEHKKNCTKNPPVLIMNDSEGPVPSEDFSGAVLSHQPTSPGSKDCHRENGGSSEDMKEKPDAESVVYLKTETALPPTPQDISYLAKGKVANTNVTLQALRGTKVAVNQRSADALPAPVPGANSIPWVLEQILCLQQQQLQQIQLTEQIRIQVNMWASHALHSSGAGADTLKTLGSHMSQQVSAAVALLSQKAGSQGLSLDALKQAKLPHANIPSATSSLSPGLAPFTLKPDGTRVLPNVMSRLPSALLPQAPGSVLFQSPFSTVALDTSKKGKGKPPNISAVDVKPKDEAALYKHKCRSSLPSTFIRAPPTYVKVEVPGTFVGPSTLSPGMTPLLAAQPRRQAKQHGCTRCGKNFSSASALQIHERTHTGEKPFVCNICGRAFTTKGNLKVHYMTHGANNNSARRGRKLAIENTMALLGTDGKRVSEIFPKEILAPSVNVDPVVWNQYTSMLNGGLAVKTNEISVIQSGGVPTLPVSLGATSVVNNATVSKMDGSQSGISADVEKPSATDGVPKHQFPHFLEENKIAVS
Oligonucleotide,E-score
AACTCTCA,0.0703
CTAGTGTA,0.116
TGAAGCCA,0.0858
AACGGAAT,0.175
CGGCTATA,-0.0143
CTTTCCTA,0.00885
AAACTCAG,-0.0628
ACCACCCG,-0.289
CAGCTGGG,-0.327
CGCGGTGC,-0.363
CGCTTTCA,0.095
CTCACGTC,-0.105
ACCTCATA,0.106
AGGCCAGC,-0.274
AACTGATC,-0.0959
CTTTGTCC,-0.0389
ACCTGGGC,-0.187
CCCAAACC,-0.183

# Series 2
# Target: Ras GTPase-activating protein-binding protein 1, full length (G3BP1, Homo sapiens, UniProt Q13283)
# UniProt Q13283, sequence (whole entry, looked up): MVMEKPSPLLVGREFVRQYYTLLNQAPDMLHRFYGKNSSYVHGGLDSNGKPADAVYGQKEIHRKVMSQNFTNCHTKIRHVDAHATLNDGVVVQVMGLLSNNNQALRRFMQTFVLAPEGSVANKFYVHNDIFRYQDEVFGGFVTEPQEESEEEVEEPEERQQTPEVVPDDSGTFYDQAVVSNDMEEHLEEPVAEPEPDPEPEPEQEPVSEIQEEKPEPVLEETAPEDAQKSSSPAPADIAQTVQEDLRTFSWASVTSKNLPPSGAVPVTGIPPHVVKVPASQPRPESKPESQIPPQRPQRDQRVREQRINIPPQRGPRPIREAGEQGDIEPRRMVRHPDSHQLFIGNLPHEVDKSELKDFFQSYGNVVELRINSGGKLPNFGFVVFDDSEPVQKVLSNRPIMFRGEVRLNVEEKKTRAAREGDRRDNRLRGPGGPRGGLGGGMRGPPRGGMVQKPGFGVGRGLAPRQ
# Technique: RNA Bind-n-Seq
# Molecule type: RNA
# Medium: in vitro
# Concentration: 200 nM
# Notes: whole 134-nt RNA, ends assumed
# With: 150 mM LiCl
# Reference: input library
# Direction: higher = stronger binding
# Library: 7-deaza-guanosine replaces G
# All sequences stand within: GGGAGUUCUACAGUCCGACGAUC … UGGAAUUCUCGGGUGUCAAGG
Oligonucleotide,log2 enrichment
AGCCGAGCGGGAACGGAACCGACAGCUGGAGCGAGAGAAACGUCGGGAGCACAGUCGGGAGAGGGACAGGGAGAGAGAGAGAGAAAGGGA,0.309
UCCUGUGCUACACAUCGUAUGUACCGAAUCAAACCCCCAAACCCCCCCAAACCCCCAAAAAAGUAUUAUGUUACGCCGUUCGGAUCUGCA,0.0766
ACCAUGCAGGUGGGCAUCUUUGGGAAGUGGGGCAAGGGGGGGAUAGGGAGGGGGGUAACACUUUGGGAAGAGGUGGUCCCAGGUCGUUUC,-0.0908
GUCCUGUGCUACACAUCGUAUGUACCGAAUCGGGAGGGUUUUUUUGGGUUUUUUUGGGAAAGUAUUAUGUUACGCCGUUCGGAUCUGCAC,-0.00272
GCAGGCAGUAAAAACAAAUGGAAAUGCUUCGGAUAGUGGCAGGGGUGGGGGUUGCUAAGGAAAGGGUGGGAUGGGAGUGGGUAAAGAGUU,-0.0777
UCAAGUCCUGUGCUACACAUCGUAUGUACCGAAUCGGAGGUUUUUGGAAAAAGGAAAGUAUUAUGUUACGCCGUUCGGAUCUGCACUUCC,-1.28
UCCUUUCUGUCAUUUUACACCCACAGUUGAAGAUUCCUGUCUCUGGAUCCAAAUCAGAGGGCCUUCUCUACGUCCACUCAUCCAGAGGUG,1.48
UAACUUUAGAGGAGGAUCUGAUGGAUAUGGCAGUGGACGUGGAUUUGGGGAUGGCUAUGAUGGGUAUGGAGGAGGACCUGGAGGUGGCAA,-0.0653
CCUGUGCUACACAUCGUAUGUACCGAAUCAAAUUUUUAAACCCCCCCAAAUUUUUUUAAAAAAGUAUUAUGUUACGCCGUUCGGAUCUGC,1.16
GUCCUGUGCUACACAUCGUAUGUACCGAAUCGGGUUUUUGGUUUUUGGGGUUUUUGGGAAAGUAUUAUGUUACGCCGUUCGGAUCUGCAC,-0.26
CUGUGCUACACAUCGUAUGUACCGAAUCGGGGCCCCCCCGGGCCCCCCCGGGGCCCCCCCGGAAAGUAUUAUGUUACGCCGUUCGGAUCU,-0.217

# Series 3
# Target: RNA binding protein fox-1 homolog 2, RRM domain, GST-SBP tag (RBFOX2, Homo sapiens, UniProt O43251-10, residues 100-194)
# Technique: RNA Bind-n-Seq
# Molecule type: RNA
# Medium: in vitro
# Concentration: 365 nM
# Notes: natural RNA segment, single round, ends assumed
# Reference: no-protein control
# Direction: higher = stronger binding
# All sequences stand within: GGGAGUUCUACAGUCCGACGAUC … UGGAAUUCUCGGGUGCCAA
# Target sequence (chain): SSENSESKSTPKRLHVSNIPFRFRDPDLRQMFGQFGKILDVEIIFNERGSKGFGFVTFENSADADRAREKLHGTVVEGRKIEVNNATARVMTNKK
Oligonucleotide,RBNS enrichment (R)
AUAAAGAUUUUAAAUAUUUCUUGGUUUACUUUUGUAAUUAUAUACACAACAAAUGUAUUAAUAACUACCUUGUUAAACACCUUUUAAUAGCACAAGGUUUUUAUAUUUGC,0.677
UGCAGUAACUCUGUACUUCUCUAUCUGCACACACAAAAUGCCCAAGGCACUCACUGGGGAGGAAGCAAGGAAGCAAACAGUCUGAGAAAAUGAUGCAAGAAAAUCAAAUG,1.54
GAUCCAAGGUAAGAUUGCCUUCAGUCUGAUGUUUGUUCUCAAGGACUUAUCCCCUACAAUAUUCUCCCACUCCAUACUUCUCCUUCUACCCCACCAUGUGCUCCCGUGCA,2.11
UUUGGUGAGCUUUCUCAGAGCCAUGGCUGCAGGCAUGUGAGCUGCGGGAACUUCCUCCUGAACUACCCAGGGCCUAAUCAUCCAGCACCUGUGUGUUGAGGUAGACUGGU,1.89
GGUUUUCUUUUCCCAUCUCUGCACAUUGAAAAACCAAGCCAAGUCUAUUUGCCAAUGAUAGAUCACUAAUUACAAAGCUAGUAGUUCUCCUUUGGGUAAGAGUCUGUUUG,0.42
GCAUGCUAGAUACGGAAGAACAGGAGCGCCAGACGCAGGCCGUCCUCCAAGCCGUUGCAGACAAAGUGAAAGAGGACUCCCAGGUGCCUGCAACCCAGACUCUGCAGAGA,7.01
UAAGAAACACAUUUAACAUCCGAAGAAGCAAUGCUGUCCUCACUUGAUGUUUCUCUUCUCAACCCAGCAAUGGAGAGCAGGGCUUGCAAAGCCGUACAGAGCCUACGUGC,0.379
AAGUUGUUGUGUUUUUUUUUAAAUAGUAGUUUGUAGUAUUUUAAAGAAAGAACAGAUCGAGUUCUAAUUAUGAUCUAGCUUGAUUUUGUGUUGAUCCAAAUUUGCAUAGC,4.32
UAUCACUUUUUCAGCUGAUAUAUUCAUUUUAAUGGCUUUUUUGAAAGUUCCUUUUUCAUGAACACACCCGAGAAAUCUUAAAUAGACACUUUGCAAUAUUUAAGAACCUA,0.545
AGACCAGGCUGGGGCUGCUGCCCUCCCACACGAGGUACUGAUGGAUCCUGGUUCUAUUCUGGGUAUUUCAUCCUGCCUUCCAGAGCACCUUCUGAAGUUCACAUCGUUGG,0.244
CACAACGUCUCUACUGUGCCUAUUACCAAGCGAGUGUUUGUAACCACAUACUUUUGGAAUCCACUGCAAAAUUUUCUACUGGCCAAGUUCAAGUGAGCAAGCCAUGCCCC,0.587
AAUUUUGUCAUAUCUAUUAGGCCAGAAAGUAAUCACUGAAGAAGCAGAUGGUAGGAGCUGGAGCAAGGUGGUCCACAGGGGAAUGCCUCUCCUGUGCCCAUUUUAUAAUA,0.524

# Series 4
# Target: Interferon regulatory factor 5, full length, phosphomimetic (IRF5, Homo sapiens, UniProt Q13568-2, residues 1-514, K96S/S451D/S453D/S456D/S462D)
# Technique: protein-binding microarray
# Molecule type: double-stranded DNA, one strand shown
# Medium: in vitro
# Concentration: 250 nM
# Notes: 60-bp whole probe
# With: salmon DNA 0.4 mg/ml
# Reference: random background probes
# Direction: higher = stronger binding
# All sequences stand within: GCCTAGCAC … GTCTTGATTCGCTTGACGCTGCTG
Oligonucleotide,log fluorescence [z-score]
TTAGATTTCAGTCTCGATTCGTGCTAG,2.43
GACGGTATCGTGACTGGGGACGTGCTA,-0.0068
TTAGGTAGCGGGACTGGGTTAGTGCTA,-0.397
GACGAGATCAGACTGGAGACGTGCTAG,-0.221
TTAGAACTGGGTTTCGGTTAGTGCTAG,8.49
TCAAATTCTCATTTCCAACTGTGCTAG,0.638
TTTTTTTTTTGTATTTTTGAGTGCTAG,1.49
AACGGACTGGACACTGGGGACGTGCTA,-0.387
GACCGTATCGACTATCGGGACGTGCTA,3.93
GACGGACTGGGACTGAGGACGTGCTAG,-0.767
TACGATTTCAGTTCCGAGACGTGCTAG,1.33
GAGGGTTTCGGGTTTCGGGACGTGCTA,6.9
TTAGGACTGGGTCTGGGTTAGTGCTAG,-0.566
GACGGTCTCAGTCTCGGGACGTGCTAG,-0.126
GACGAAATCAGACTGGAGACGTGCTAG,0.629
GACCGACTGGACTTTCGGGACGTGCTA,4.85
TCAATTATTGTTTCCTCACTGTGCTAG,1.23
GACGGTTTCGGTCTCGGTACGTGCTAG,9.58
TTAGATCTCAGTCTCGATCAGTGCTAG,0.538
CAGCTTTTATCCCTGACAGAGTGCTAG,0.141
CTAGAACTGGGGACTGGATTAGTGCTA,-0.676
GACGGACTGCACTATCGGGACGTGCTA,1.2
GACGATTTCGGTACTGGAGACGTGCTA,5.96
TCCAATTGTCCTTTCACTTTGTGCTAG,2.74
TTAGGTATCGACACAGGGTTAGTGCTA,2.64

# Series 5
# Target: Prothrombin, mature alpha-thrombin (F2, Homo sapiens, UniProt P00734)
# Technique: aptamer microarray, sandwich
# Molecule type: DNA with 2'F-ANA
# Medium: in vitro
# Concentration: 200 nM
# Notes: whole 15-mer aptamer, many near background
# With: Cy3 exosite-II aptamer, 400 nM
# Direction: higher = stronger binding
# Oligonucleotide: GGTTGGTGTGGTTGG
Modification,mean fluorescence intensity [a.u.]
2'F-ANA at 2 3 7 8 9 12 15,1150
2'F-ANA at 1 2 3 4 9 10,58.1
2'F-ANA at 1 2 4 5 6 10 12 14,47.1
2'F-ANA at 2 5 6 8 9 10 12 13 14,48.1
2'F-ANA at 2 3 5 7 8 9 11 12 13 15,134
2'F-ANA at 3 6 7 8 9 10 11 13 15,431
2'F-ANA at 4 8 9,379
2'F-ANA at 2 3 5 8 9 11 13,84.4
2'F-ANA at 1 2 4 5 6 7 8 9 10 12 13,50.8
2'F-ANA at 1 3 4 5 7 11 12 14 15,66.2
2'F-ANA at 4 5 10 11 15,46.9
2'F-ANA at 3 4 5 7 8 9 10 11 13 15,52.5
2'F-ANA at 1 3 7 10 11 12 13 14 15,64.6
2'F-ANA at 4 9 11 12 15,437
2'F-ANA at 3 4 10 12 15,407
2'F-ANA at 1 2 6 7 8 9 10 11 13 14,52.5
2'F-ANA at 5 7 8 13 14 15,82

# A few entries again (series 2):
Oligonucleotide,log2 enrichment
UAACUUUAGAGGAGGAUCUGAUGGAUAUGGCAGUGGACGUGGAUUUGGGGAUGGCUAUGAUGGGUAUGGAGGAGGACCUGGAGGUGGCAA,-0.0653
UCCUGUGCUACACAUCGUAUGUACCGAAUCAAACCCCCAAACCCCCCCAAACCCCCAAAAAAGUAUUAUGUUACGCCGUUCGGAUCUGCA,0.0766
CUGUGCUACACAUCGUAUGUACCGAAUCGGGGCCCCCCCGGGCCCCCCCGGGGCCCCCCCGGAAAGUAUUAUGUUACGCCGUUCGGAUCU,-0.217
GUCCUGUGCUACACAUCGUAUGUACCGAAUCGGGUUUUUGGUUUUUGGGGUUUUUGGGAAAGUAUUAUGUUACGCCGUUCGGAUCUGCAC,-0.26
ACCAUGCAGGUGGGCAUCUUUGGGAAGUGGGGCAAGGGGGGGAUAGGGAGGGGGGUAACACUUUGGGAAGAGGUGGUCCCAGGUCGUUUC,-0.0908
CCUGUGCUACACAUCGUAUGUACCGAAUCAAAUUUUUAAACCCCCCCAAAUUUUUUUAAAAAAGUAUUAUGUUACGCCGUUCGGAUCUGC,1.16
GCAGGCAGUAAAAACAAAUGGAAAUGCUUCGGAUAGUGGCAGGGGUGGGGGUUGCUAAGGAAAGGGUGGGAUGGGAGUGGGUAAAGAGUU,-0.0777
UCAAGUCCUGUGCUACACAUCGUAUGUACCGAAUCGGAGGUUUUUGGAAAAAGGAAAGUAUUAUGUUACGCCGUUCGGAUCUGCACUUCC,-1.28
